# Measured values collected from several papers.
# Every numbered part comes from another study and shows a few of its results, in no order. Values joined by “and” are separate records of one study, mostly repeats; a detail may differ.
# Sequence of UniProt P30291 (whole entry, looked up): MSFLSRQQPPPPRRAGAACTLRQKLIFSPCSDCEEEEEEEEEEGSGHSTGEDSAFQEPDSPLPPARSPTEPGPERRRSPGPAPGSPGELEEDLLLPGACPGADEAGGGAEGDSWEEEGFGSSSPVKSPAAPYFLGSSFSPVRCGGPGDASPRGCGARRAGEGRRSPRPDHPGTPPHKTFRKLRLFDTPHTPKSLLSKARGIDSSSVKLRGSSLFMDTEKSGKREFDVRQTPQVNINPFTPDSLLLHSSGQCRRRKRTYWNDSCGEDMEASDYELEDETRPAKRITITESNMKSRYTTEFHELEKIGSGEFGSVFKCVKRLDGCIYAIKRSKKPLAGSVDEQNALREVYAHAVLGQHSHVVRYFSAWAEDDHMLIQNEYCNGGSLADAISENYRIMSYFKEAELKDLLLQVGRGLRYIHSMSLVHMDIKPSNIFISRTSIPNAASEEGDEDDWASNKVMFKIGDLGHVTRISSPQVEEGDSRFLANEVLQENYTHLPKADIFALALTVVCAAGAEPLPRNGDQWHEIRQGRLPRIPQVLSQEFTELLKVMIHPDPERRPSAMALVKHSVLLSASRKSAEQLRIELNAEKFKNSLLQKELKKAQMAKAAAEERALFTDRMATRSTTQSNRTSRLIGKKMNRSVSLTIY
# Sequence of UniProt Q96PY6 (whole entry, looked up): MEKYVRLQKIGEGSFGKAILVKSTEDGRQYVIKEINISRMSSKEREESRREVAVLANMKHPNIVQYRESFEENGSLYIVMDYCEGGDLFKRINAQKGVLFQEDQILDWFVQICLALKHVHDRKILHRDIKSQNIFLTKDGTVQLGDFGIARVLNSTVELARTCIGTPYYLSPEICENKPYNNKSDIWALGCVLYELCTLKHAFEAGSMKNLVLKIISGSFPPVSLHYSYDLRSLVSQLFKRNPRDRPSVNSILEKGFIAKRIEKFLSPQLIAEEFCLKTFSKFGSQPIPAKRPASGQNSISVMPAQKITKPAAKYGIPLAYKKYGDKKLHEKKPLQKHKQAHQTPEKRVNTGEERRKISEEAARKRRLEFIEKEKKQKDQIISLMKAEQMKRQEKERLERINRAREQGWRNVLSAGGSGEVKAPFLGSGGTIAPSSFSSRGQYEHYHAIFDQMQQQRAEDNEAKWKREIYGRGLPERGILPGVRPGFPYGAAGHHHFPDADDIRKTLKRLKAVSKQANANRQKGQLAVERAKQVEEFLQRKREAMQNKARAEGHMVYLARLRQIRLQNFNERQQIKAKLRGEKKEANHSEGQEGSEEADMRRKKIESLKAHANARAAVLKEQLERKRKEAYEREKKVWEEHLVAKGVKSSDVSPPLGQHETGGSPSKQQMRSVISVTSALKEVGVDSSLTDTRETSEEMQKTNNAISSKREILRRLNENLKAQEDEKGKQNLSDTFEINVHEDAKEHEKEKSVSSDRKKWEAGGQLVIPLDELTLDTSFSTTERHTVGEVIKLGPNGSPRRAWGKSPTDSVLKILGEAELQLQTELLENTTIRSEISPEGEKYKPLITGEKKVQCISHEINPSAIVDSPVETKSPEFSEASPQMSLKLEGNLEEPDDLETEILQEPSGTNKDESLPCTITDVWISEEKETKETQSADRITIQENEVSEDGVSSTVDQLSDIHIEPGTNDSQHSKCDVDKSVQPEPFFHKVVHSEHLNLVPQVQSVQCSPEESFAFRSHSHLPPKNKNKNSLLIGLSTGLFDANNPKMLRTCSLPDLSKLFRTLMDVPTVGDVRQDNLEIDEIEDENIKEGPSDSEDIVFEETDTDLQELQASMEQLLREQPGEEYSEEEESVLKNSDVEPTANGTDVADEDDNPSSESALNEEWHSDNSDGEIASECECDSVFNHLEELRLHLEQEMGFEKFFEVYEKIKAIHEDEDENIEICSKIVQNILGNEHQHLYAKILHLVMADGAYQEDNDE
# Sequence of UniProt Q02763 (whole entry, looked up): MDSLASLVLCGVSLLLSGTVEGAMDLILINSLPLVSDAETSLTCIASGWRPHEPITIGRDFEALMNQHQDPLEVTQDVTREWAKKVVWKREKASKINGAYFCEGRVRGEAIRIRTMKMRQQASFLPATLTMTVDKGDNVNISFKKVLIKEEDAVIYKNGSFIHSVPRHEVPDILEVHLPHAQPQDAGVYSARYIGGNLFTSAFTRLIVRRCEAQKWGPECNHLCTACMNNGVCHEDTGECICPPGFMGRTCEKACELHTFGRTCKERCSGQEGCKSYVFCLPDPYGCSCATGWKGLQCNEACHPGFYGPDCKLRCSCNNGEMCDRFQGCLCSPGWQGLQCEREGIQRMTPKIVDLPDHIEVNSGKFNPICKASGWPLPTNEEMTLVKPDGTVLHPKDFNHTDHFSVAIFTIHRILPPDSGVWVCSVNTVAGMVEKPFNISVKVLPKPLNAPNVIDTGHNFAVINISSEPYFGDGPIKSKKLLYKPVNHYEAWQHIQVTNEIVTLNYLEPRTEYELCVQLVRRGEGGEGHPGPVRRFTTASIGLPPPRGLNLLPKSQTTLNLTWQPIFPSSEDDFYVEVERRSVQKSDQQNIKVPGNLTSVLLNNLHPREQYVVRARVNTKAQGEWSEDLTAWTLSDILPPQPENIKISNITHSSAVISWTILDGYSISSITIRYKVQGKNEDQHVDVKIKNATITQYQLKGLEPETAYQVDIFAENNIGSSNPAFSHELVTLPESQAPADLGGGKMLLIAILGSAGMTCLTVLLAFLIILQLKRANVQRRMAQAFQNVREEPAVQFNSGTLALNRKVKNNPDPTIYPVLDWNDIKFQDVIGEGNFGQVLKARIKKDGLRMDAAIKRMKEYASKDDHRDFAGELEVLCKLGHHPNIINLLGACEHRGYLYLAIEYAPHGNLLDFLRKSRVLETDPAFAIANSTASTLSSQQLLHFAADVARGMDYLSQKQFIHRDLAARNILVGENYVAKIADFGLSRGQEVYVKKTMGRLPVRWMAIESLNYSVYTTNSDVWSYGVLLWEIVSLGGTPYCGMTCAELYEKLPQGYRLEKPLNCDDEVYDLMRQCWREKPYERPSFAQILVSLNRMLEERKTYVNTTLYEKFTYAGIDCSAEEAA
# Sequence of UniProt P11362 (whole entry, looked up): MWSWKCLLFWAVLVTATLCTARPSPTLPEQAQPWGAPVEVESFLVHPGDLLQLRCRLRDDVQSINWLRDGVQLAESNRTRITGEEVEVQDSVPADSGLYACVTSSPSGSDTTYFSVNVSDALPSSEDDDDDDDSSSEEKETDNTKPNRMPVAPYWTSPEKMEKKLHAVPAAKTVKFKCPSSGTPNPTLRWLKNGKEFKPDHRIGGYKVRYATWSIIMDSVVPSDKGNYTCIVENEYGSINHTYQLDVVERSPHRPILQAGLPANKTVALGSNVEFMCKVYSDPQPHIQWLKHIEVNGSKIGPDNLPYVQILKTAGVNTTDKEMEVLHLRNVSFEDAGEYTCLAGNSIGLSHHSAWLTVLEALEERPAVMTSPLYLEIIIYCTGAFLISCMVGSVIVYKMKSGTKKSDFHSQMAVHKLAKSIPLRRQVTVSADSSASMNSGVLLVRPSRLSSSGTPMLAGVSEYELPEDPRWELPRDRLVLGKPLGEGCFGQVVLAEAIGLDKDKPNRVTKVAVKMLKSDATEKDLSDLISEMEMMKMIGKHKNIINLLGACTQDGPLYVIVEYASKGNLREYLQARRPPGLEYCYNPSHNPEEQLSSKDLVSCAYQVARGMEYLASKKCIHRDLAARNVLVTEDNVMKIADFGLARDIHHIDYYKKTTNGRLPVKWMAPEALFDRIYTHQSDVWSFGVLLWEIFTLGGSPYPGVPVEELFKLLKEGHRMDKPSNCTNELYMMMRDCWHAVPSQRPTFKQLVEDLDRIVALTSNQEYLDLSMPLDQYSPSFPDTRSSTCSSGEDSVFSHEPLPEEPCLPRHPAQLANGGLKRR
# Sequence of UniProt P36896 (whole entry, looked up): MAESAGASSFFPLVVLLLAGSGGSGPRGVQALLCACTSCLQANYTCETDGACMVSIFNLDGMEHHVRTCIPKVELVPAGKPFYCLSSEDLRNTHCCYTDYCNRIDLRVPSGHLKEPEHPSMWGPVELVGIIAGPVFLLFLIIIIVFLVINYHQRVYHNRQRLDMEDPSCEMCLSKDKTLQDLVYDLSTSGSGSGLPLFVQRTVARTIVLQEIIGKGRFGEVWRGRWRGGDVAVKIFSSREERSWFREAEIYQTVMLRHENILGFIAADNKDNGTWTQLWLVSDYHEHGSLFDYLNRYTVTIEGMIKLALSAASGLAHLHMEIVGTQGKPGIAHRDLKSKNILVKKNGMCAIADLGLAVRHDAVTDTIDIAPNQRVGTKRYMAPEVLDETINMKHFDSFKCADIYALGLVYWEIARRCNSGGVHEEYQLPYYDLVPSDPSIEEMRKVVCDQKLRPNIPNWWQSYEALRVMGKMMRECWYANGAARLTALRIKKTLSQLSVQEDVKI
# Sequence of UniProt Q9Y6M4 (whole entry, looked up): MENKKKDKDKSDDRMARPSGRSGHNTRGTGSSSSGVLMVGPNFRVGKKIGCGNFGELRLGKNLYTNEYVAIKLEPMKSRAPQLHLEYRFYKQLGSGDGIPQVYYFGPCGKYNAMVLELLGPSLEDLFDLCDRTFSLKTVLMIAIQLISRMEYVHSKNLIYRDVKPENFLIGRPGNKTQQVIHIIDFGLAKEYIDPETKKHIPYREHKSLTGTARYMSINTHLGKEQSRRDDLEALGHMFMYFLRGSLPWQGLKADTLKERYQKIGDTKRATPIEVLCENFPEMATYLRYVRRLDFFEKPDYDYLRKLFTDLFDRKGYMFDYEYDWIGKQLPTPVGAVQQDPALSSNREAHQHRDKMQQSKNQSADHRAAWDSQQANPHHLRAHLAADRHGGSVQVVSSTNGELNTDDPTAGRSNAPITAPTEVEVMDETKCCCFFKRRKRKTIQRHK

# Block 1
# Cell line: mouse MPNST tumor cells
# Method: high-content nuclear imaging
# Item: cell number
# Tested at: 10 µM
# Time: 12 h
# Notes: mean of 2 replicates
# Baseline: plate mean
# Direction: higher = more cells
SMILES,nuclei count
CO[C@H]1/C=C/O[C@@]2(C)Oc3c(C)c(O)c4c(O)c(c(/C=N/N5CCN(C)CC5)c(O)c4c3C2=O)NC(=O)/C(C)=C\C=C\[C@H](C)[C@H](O)[C@@H](C)[C@@H](O)[C@@H](C)[C@H](OC(C)=O)[C@@H]1C,2.16 z-score
CCCc1nc(C(C)(C)O)c(C(=O)O)n1Cc1ccc(-c2ccccc2-c2nnn[nH]2)cc1,-0.573 z-score and 0.595 z-score
CCN(CC)Cc1ccc(C(=O)N(CCc2ccccc2OC)[C@@H]2CCNC2)cc1,1.69 z-score
CN(CCOc1ccc(CC2SC(=O)NC2=O)cc1)c1ccccn1 (stereo not shown),2.64 z-score and 2.79 z-score and 1.9 z-score
c1ccc2c(-c3cnn4cc(-c5ccc(N6CCNCC6)cc5)cnc34)ccnc2c1,-6.39 z-score

# Block 2
# Cell line: HaCaT
# Tested at: 100 µM
# Time: 18 h
SMILES,viability
CCN(CCCCOC(=O)c1ccc(OC)c(OC)c1)C(C)Cc1ccc(OC)cc1 (stereo not shown),70.6%
C=C(c1ccc(C(=O)O)cc1)c1cc2c(cc1C)C(C)(C)CCC2(C)C,20.5%
Oc1ccc(O)cc1,139%

# Block 3
# Compound: Cc1ccc(NC2=CC(=O)c3sc(C)nc3C2=O)cc1
# Observed: enzyme activity
# Mode: inhibitor
# Tested at: 0.5 µM
# Baseline: control
target,remaining activity
"FGFR1 (Homo sapiens, UniProt P11362)",85.3%
"NEK1 (Homo sapiens, UniProt Q96PY6)",76.5%
"TEK (Homo sapiens, UniProt Q02763)",95.9%
"CSNK1G3 (Homo sapiens, UniProt Q9Y6M4)",90.1%
"WEE1 (Homo sapiens, UniProt P30291)",107%
"LCK (Homo sapiens, UniProt P06239)",94.2%
"CSNK1G2 (Homo sapiens, UniProt P78368)",99.9%
"ACVR1B (Homo sapiens, UniProt P36896)",110%
"TBK1 (Homo sapiens, UniProt Q9UHD2)",94%
"FRK (Homo sapiens, UniProt P42685)",87.9%
"JAK3 (Homo sapiens, UniProt P52333)",97.4%
"MST1R (Homo sapiens, UniProt Q04912)",88.9%
"ARAF (Homo sapiens, UniProt P10398)",127%
"FGFR3 (Homo sapiens, UniProt P22607)",86%

# Block 4
# Host: mouse
# Matrix: microsomes or S9
# Tested at: 2 µM
# Time: 0.5 h
Compound,remaining compound [%]
COc1cccc2c1CCC(=O)N2CCCN1CCC(c2ccccc2)CC1,7.2
CC1=C(C(=O)NC2CCN(Cc3ccc(OCCCN(C)C)cc3)CC2)Cc2ccccc21,88.4
Clc1ccccc1/C=C/c1nnc(-c2ccccc2Cl)o1,86.7
CC(C)NC(=O)Cn1cnc2c(sc3cccc(Cl)c32)c1=O,93.8

# Block 5
# SMILES: CCC(=O)N[C@H]1CC[C@@H](C(=O)N(C)c2ccc(-c3nc4ccccc4o3)cc2)C1
# Observed: cell-free assay
# Method: competition with immobilised ligand
# Tested at: 1 µM
target,remaining binding
"EPHA7 (Homo sapiens, UniProt Q15375)",97%
"PRKG1 (Homo sapiens, UniProt Q13976)",100%
"CAMK1G (Homo sapiens, UniProt Q96NX5)",100%
"ROCK2 (Homo sapiens, UniProt O75116)",100%
"CAMK2G (Homo sapiens, UniProt Q13555)",95%

# Excerpt of the above (block 5):
target,remaining binding
"CAMK2G (Homo sapiens, UniProt Q13555)",95%
"CAMK1G (Homo sapiens, UniProt Q96NX5)",100%
"ROCK2 (Homo sapiens, UniProt O75116)",100%
"PRKG1 (Homo sapiens, UniProt Q13976)",100%
